# Published values of several laboratories.
# ± marks the error that the study gave.
# Chain of UniProt Q14680 (whole entry, looked up): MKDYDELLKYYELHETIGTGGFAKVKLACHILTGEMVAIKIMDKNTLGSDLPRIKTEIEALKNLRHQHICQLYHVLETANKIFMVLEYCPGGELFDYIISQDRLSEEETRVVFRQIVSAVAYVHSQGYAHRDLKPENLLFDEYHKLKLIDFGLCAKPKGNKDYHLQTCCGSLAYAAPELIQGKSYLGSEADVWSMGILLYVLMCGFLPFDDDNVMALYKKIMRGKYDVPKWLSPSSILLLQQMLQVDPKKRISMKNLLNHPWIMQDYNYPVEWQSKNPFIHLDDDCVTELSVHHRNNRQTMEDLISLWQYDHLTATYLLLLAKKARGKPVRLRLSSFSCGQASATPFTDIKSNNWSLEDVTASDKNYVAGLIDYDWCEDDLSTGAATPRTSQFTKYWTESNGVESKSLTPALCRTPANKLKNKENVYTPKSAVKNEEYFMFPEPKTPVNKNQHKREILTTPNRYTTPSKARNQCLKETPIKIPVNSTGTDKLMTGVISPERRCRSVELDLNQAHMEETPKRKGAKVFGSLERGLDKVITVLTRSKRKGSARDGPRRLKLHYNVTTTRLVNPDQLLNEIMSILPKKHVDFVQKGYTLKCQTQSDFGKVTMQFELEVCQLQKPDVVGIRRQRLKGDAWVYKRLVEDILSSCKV
SMILES,target or system,test,system,setting,measurement,result
COc1cc(-c2nc3ccccc3c(=O)n2Nc2ccc([N+](=O)[O-])cc2[N+](=O)[O-])ccc1OCc1cn(CC(=O)Nc2ccc([N+](=O)[O-])cc2C)nn1,mushroom tyrosinase,enzyme activity,,"40 µM, with: L-DOPA",inhibition,36 ± 11%
Cc1ccc(N=Nc2c(N)nn3c(-c4ccc(C)cc4)cc(-c4ccc(OCc5ccccc5)cc4)nc23)cc1,Candida albicans,broth microdilution,ATCC 10231,,MFC/MIC ratio,3.9
COc1cc(/C=N/NC(=S)N/N=C/c2ccc(Br)cc2)ccc1Oc1ccnc2cc(Cl)ccc12,human lysosomal acid alpha-glucosidase,inhibitor,,with: pNPG substrate,IC50,8.33 ± 0.23 µg/mL
O=C(Nc1cc(-c2ccc(Cl)cc2)[nH]n1)C1CCCCC1,"MELK (Homo sapiens, UniProt Q14680)","enzyme activity, Dundee kinase panel",,10 µM,remaining activity,84%
CCOc1c([C@H](C)n2nc(C)c3c(N)ncnc32)cc(Cl)c(F)c1[C@@H]1CNC(=O)C1,,,"patients with DLBCL, plasma","oral, 30 mg, day 15, monotherapy",half-life,10.5 ± 2 h
O=C(O)c1cn(Cc2ccc(C(F)(F)F)cc2)c2ccc(Oc3ccccc3)cc2c1=O,MDA-MB-231,,,72 h,CC50,38.2 ± 0.86 µM
COc1cc(-c2nc3ccccc3c(=O)n2Nc2ccc([N+](=O)[O-])cc2[N+](=O)[O-])ccc1OCc1cn(CC(=O)Nc2ccc(C)cc2C)nn1,mushroom tyrosinase,enzyme activity,,"40 µM, with: L-DOPA",inhibition,45.5 ± 8.97%
Nc1nn2c(-c3ccc(Cl)cc3Cl)cc(-c3ccc(OCc4ccccc4)cc3)nc2c1N=Nc1ccc(F)cc1,Bacillus pumilus,broth microdilution,MTCC 2296,,MIC,62.5 µg/mL
